Published values gathered from unrelated publications.
Each line is one published result; not all experiments were run side by side. ± gives the spread as reported.
Technique: steady-state kinetics
B1: DTYMK (Homo sapiens, UniProt P23919); chain MAARRGALIVLEGVDRAGKSTQSRKLVEALCAAGHRAELLRFPERSTEIGKLLSSYLQKKSDVEDHSVHLLFSANRWEQVPLIKEKLSQGVTLVVDRYAFSGVAFTGAKENFSLDWCKQPDVGLPKPDLVLFLQLQLADAAKRGAFGHERYENGAFQERALRCFHQLMKDTTLNWKMVDASKSIEAVHEDIRVLSEDAIRTATEKPLGELWK
B2: genB3 (Micromonospora echinospora, UniProt Q2MG50); chain MDSANLTNRGLVERARRVTAAENYDIGTRFSAMIQSGEGAWLTDVEGNRYVDLTASSGTIILGHRNQAVTEAITRQIRDFGTAFASTLSVPRVELAERLCERYECAEKVVFHKTGSEGTAMAARLARAATGRELILSCGYHGWHEWQLAGETFGYQQTTGVVGFGYNEKALAKMLEAFGNEVAGVLISPELLYFDVEFYQRMYALCARYDVPFMMDEVYTGFRAGPKGVHGLGVPADVVVVSKGLANGHSLAAVMGRRDIIDAYDVSGIQGTYTREVPPMAAAMAVLDVLDTPGVYEHAEAMGRRLADGMREILTGEGIPNWVGGPALMFDTVLPNDDLGWEIYKTAHDFGVYFEDSGTQLVTTAFDEAAVDHALTAFRKATRQVIADRPDIAPTSGGELTEERKLDFAEEAFGGLLRDDERTNALIDETIEKVVNRDRSIKPVLIPAQN
B3: enzyme (Streptomyces platensis, UniProt A0A0A0V031); chain MQHTTIGDVLREHRRSHPGRTALVDGPVRLTWPELDDRVNRLAGSLAASGIGRGDRIMWLGQNSFRVYELIAAAGKLGAMVCVGYWRWAPPEMEFALRDFDPHLVVWQHQEIHETVARTREALGSDDTARWLRHDSAPQDPDGYEAFLAAGGLADPDLDIDPDSPVLVLYTAAMSGRQCGSLLSHTNLIAMATAAAWLGDIDHTTAFLNSGPMFHIGNHQFWGMPTLLMAGKNVIVRRVVAEEVRDLLVAEECTHAFLMPPTVAEIVRLNRDTGHDLSRLRATVAPHLWEGMATTDTSRFTRSGAAAGRGYGQTELSGFAVTAAYGGPAAGNAGRPGPGLTVRVLDTAGRECAVGEAGEICARGTVVHRGYWNRDEVNAHRFRSGWWHTTDLGRREPDGSLTFLGTTTRMLKSAAENIFPAEVENCIEQHPAVREAAVIGVPNTRWAQDVKAVVVLEPDAGVSEQEIIDHCRPRIASYKKPKSVAFAAALPRTVSGARDYDALDKEYGGGGYPGAATLGPGR
B4: PPIP5K2 (Homo sapiens, UniProt O43314); chain MSEAPRFFVGPEDTEINPGNYRHFFHHADEDDEEEDDSPPERQIVVGICSMAKKSKSKPMKEILERISLFKYITVVVFEEEVILNEPVENWPLCDCLISFHSKGFPLDKAVAYAKLRNPFVINDLNMQYLIQDRREVYSILQAEGILLPRYAILNRDPNNPKECNLIEGEDHVEVNGEVFQKPFVEKPVSAEDHNVYIYYPTSAGGGSQRLFRKIGSRSSVYSPESNVRKTGSYIYEEFMPTDGTDVKVYTVGPDYAHAEARKSPALDGKVERDSEGKEVRYPVILNAREKLIAWKVCLAFKQTVCGFDLLRANGQSYVCDVNGFSFVKNSMKYYDDCAKILGNIVMRELAPQFHIPWSIPLEAED
B5: AK1 (Homo sapiens, UniProt P00568); chain MEEKLKKTKIIFVVGGPGSGKGTQCEKIVQKYGYTHLSTGDLLRSEVSSGSARGKKLSEIMEKGQLVPLETVLDMLRDAMVAKVNTSKGFLIDGYPREVQQGEEFERRIGQPTLLLYVDAGPETMTQRLLKRGETSGRVDDNEETIKKRLETYYKATEPVIAFYEKRGIVRKVNAEGSVDSVFSQVCTHLDALK
B6: genB3 Q310N (Micromonospora echinospora, UniProt Q2MG50); chain MDSANLTNRGLVERARRVTAAENYDIGTRFSAMIQSGEGAWLTDVEGNRYVDLTASSGTIILGHRNQAVTEAITRQIRDFGTAFASTLSVPRVELAERLCERYECAEKVVFHKTGSEGTAMAARLARAATGRELILSCGYHGWHEWQLAGETFGYQQTTGVVGFGYNEKALAKMLEAFGNEVAGVLISPELLYFDVEFYQRMYALCARYDVPFMMDEVYTGFRAGPKGVHGLGVPADVVVVSKGLANGHSLAAVMGRRDIIDAYDVSGINGTYTREVPPMAAAMAVLDVLDTPGVYEHAEAMGRRLADGMREILTGEGIPNWVGGPALMFDTVLPNDDLGWEIYKTAHDFGVYFEDSGTQLVTTAFDEAAVDHALTAFRKATRQVIADRPDIAPTSGGELTEERKLDFAEEAFGGLLRDDERTNALIDETIEKVVNRDRSIKPVLIPAQN
B7: protein (Thermotoga neapolitana, UniProt B9K712); chain MKMLYDLAKKRKTVRRFKKEKPPLEDLIYSLKVANEAPSGMNAQPWRFLIVEDEKLKGQIRRVCERSEKTFYENVRGRLKEWLDEKRFTWRKPFLKEAPYLLLVFSEKSAPYSRESVWLAVGYLLLALEEKGLGSVPYTPPDFREVEKLVNTPSELRLEVILPVGYPDDPKPKYPRNEVIVRYNTF
B8: CMPK1 (Homo sapiens, UniProt P30085); chain MKPLVVFVLGGPGAGKGTQCARIVEKYGYTHLSAGELLRDERKNPDSQYGELIEKYIKEGKIVPVEITISLLKREMDQTMAANAQKNKFLIDGFPRNQDNLQGWNKTMDGKADVSFVLFFDCNNEICIERCLERGKSSGRSDDNRESLEKRIQTYLQSTKPIIDLYEEMGKVKKIDASKSVDEVFDEVVQIFDKEG
Chain of UniProt Q9ZGI2 (whole entry, looked up): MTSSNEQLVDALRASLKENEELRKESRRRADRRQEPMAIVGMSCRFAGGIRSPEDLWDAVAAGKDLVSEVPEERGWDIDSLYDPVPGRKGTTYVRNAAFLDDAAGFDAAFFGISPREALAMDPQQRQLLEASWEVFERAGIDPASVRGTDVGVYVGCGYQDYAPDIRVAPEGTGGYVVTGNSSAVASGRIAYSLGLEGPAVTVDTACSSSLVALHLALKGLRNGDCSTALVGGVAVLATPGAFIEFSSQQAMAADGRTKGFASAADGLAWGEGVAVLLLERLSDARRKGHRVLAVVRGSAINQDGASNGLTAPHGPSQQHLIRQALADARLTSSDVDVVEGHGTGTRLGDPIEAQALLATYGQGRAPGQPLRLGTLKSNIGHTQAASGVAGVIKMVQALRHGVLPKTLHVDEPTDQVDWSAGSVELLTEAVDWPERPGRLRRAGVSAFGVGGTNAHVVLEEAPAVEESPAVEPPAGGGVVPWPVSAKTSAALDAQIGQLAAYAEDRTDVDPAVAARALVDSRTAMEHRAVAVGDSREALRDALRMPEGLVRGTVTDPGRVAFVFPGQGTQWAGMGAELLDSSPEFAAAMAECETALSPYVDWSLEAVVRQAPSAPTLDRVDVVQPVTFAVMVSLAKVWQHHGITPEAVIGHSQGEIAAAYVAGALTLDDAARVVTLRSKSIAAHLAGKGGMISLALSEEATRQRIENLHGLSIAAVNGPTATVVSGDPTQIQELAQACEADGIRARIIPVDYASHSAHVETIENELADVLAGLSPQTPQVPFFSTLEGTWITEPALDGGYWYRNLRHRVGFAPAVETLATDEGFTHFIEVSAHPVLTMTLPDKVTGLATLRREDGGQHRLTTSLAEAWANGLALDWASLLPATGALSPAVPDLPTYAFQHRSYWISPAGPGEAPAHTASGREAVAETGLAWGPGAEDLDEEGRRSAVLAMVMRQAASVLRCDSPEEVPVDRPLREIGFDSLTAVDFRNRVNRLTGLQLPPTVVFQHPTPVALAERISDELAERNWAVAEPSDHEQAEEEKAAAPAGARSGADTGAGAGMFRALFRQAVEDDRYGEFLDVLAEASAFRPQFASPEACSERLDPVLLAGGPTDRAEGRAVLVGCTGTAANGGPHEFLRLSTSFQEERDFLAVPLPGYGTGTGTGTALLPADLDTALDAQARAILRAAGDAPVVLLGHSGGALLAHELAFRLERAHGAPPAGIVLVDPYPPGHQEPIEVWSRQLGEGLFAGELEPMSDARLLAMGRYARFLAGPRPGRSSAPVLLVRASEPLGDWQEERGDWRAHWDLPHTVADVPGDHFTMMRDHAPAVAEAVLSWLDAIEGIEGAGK

`B1 (DTYMK)` gave a kcat/Km of 900 M⁻¹ s⁻¹ (Cc1cn([C@@H]2C[C@@H](O)[C@H](COP(=O)(O)O)O2)c(=O)[nH]c1=O; together with: ATP 2 mM, Mg2+ 2 mM).
For `B2 (genB3)`, the kcat/Km was 59.3 M⁻¹ s⁻¹ (CN[C@@H]1[C@@H](O)[C@@H](O[C@@H]2[C@@H](O)[C@H](O[C@H]3O[C@H](CN)[C@@H](O)[C@H](OP(=O)(O)O)[C@H]3N)[C@@H](N)C[C@H]2N)OC[C@]1(C)O; 30 °C).
`B3 (enzyme)` has a kcat/Km of 1.5e+07 M⁻¹ s⁻¹ (C[C@@]12CCC[C@@](C)(C(=O)OP(=O)(O)OC[C@H]3O[C@@H](n4cnc5c(N)ncnc54)[C@H](O)[C@@H]3O)[C@H]1C[C@@H](O)[C@]13C[C@H]4C[C@H](O[C@@]4(C)C1)[C@@H]23; pH 7.8, 25 °C).
For `B4 (PPIP5K2)`, the kcat/Km was 8.5e+06 M⁻¹ s⁻¹ (O=P(O)(O)O[C@@H]1[C@@H](OP(=O)(O)O)[C@H](OP(=O)(O)OP(=O)(O)O)[C@@H](OP(=O)(O)O)[C@H](OP(=O)(O)OP(=O)(O)O)[C@@H]1OP(=O)(O)O).
With `B5 (AK1)` the kcat/Km was 9500 M⁻¹ s⁻¹ (Nc1ccn(C2OC(COP(=O)(O)O)C(O)C2O)c(=O)n1; 37 °C, together with: ATP 1 mM).
For `B6 (genB3 Q310N)`, the kcat/Km was 103 M⁻¹ s⁻¹ (CN[C@@H]1[C@@H](O)[C@@H](O[C@@H]2[C@@H](O)[C@H](O[C@H]3O[C@H](CN)[C@@H](O)[C@H](OP(=O)(O)O)[C@H]3N)[C@@H](N)C[C@H]2N)OC[C@]1(C)O; 30 °C).
`B7 (protein)` has a kcat/Km of 120000 ± 40000 M⁻¹ s⁻¹ (N[C@@H](Cc1ccc(O)c(I)c1)C(=O)O; pH 7.4, 25 °C).
For `enzyme (Streptomyces venezuelae, UniProt Q9ZGI2)`, the kcat/Km was 43.3 ± 0.833 M⁻¹ s⁻¹ (CC[C@@H](O)[C@H](C)/C=C/C(=O)[C@H](C)C[C@H](C)[C@H](OC)[C@@H](C)C(=O)SCCNC(C)=O).
With `B8 (CMPK1)` the kcat/Km was 6.5e+06 M⁻¹ s⁻¹ (Nc1ccn(C2OC(COP(=O)(O)O)C(O)C2O)c(=O)n1; 37 °C, together with: ATP 1 mM).
The kcat/Km of `enzyme (Streptomyces filamentosus, UniProt A0ABY4UVI6)` is reported as 88.5 M⁻¹ s⁻¹ (CC(C)C[C@H](NC(=O)c1cc(O)cc(-c2ccccn2)n1)C(=O)O; pH 8, 30 °C).
